Values quoted from earlier work as cited in several papers.
± marks the error that the study gave.
TYMS: Thymidylate synthase (TYMS, Homo sapiens, UniProt P04818)
Chain of UniProt P04818 (whole entry, looked up): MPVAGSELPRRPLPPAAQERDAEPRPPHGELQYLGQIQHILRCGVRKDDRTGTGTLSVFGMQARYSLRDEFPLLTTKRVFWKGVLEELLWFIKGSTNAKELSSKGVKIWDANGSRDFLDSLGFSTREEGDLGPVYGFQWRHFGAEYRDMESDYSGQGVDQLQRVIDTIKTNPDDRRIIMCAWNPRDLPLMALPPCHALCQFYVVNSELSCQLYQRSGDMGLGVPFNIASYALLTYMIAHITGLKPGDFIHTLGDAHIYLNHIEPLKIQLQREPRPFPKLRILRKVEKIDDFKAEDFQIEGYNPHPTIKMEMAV
Chain of UniProt P42866 (whole entry, looked up): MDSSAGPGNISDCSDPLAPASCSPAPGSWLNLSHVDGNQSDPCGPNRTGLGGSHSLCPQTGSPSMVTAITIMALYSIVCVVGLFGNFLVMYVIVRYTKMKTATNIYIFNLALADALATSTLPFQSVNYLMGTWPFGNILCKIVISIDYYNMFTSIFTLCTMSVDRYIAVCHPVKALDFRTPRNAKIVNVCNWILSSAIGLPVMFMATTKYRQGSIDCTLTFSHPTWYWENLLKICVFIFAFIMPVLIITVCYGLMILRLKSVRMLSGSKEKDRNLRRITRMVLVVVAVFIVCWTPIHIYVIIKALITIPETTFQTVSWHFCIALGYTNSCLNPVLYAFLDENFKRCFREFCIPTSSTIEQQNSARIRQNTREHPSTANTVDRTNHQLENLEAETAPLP

C=C(CC(C)(C)c1ccc(O)cc1)c1ccc(O)cc1 has a relative potency of 200 fold (MCF-7 ERE-luciferase; reporter gene, agonist; reference: compound over bisphenol A).
For CN(Cc1ccc(S(=O)(=O)N2CCOCC2)cc1)c1ccc2c3c(cccc13)C(N)=N2, the Kd was 12 nM (TYMS).
The EC50 of Cc1ccc(-c2cc3c(c(OCC4CCCN(C)C4)c2)OCCN(C(=O)Cc2c(C)noc2C)C3)s1 (centres unmarked) is reported as 23 nM (Leishmania mexicana; intracellular amastigotes; original screening sample).
O=C(NC1CC[C@@]2(O)[C@H]3Cc4ccc(O)c5c4[C@@]2(CCN3CC2CC2)C1O5)c1cccc(I)c1 (some centres unmarked) gave an EC50 of 0.49 ± 0.12 nM (Oprm1 (Mus musculus, UniProt P42866)).
OCCN1CCN(CCC=C2c3ccccc3Sc3ccc(C(F)(F)F)cc32)CC1 — result for “log2 fold change”: 1.02 (MCF7; microarray, measured: SLC38A7 mRNA; concentration not given; reference: DMSO).
The Kd of Cc1nc2ccc(C)c(Sc3ccncc3)c2c(=O)[nH]1 is reported as roughly 100 nM (TYMS).
With CC(NC(C)(C)C)C(=O)c1cccc(Cl)c1 (centres unmarked) the IC50 was 17800 nM (nicotinic receptor α4β2).
For O=C(NC1C=C[C@H]2[C@H]3Cc4ccc(O)c5c4[C@@]2(CCN3CC2CC2)C1O5)c1cccc(I)c1 (some centres unmarked), the ED50 was 0.33 ± 0.09 mg/kg (CD1 mice; subcutaneous).
